Measurements gathered from unrelated publications.
Protocols differ between the studies behind these lines. ± marks the error that the study gave.

Cc1ccc([C@H]2C[C@@H]2COc2cc(NCc3nnc(C)s3)nc(C)n2)nc1 — plasma concentration (rat (novel object recognition), plasma; oral, 0.25 mg/kg, 1 h): 29 nM
CCOCCOCCOCCCCCNC(=O)NC12CC3CC(CC(C3)C1)C2 — plasma concentration (ApoE knockout mice, plasma; drinking water, 90 µg/mL, 8 weeks): 0.06 ± 0.04 nM
O=C(O)C(F)(OC(F)(F)C(F)(F)C(F)(F)F)C(F)(F)F (stereo not shown) — plasma concentration (LC-MS; C57BL/6J mouse male, plasma; drinking water, 2 mg/L each PFAS, 12 weeks): 0.1 µg/mL
O=C(NCCS)c1cccc(C(=O)NCCS)c1 — plasma concentration (rat Sprague-Dawley male; intravenous, 1 mg/kg, 0.083 h): 0.522 µg/mL
Cc1c(P(=S)(c2ccccc2)c2ccccc2)n2ccccc2[n+]1C/C=C/c1ccccc1 — plasma concentration (mouse, plasma; intraperitoneal, 10 mg/kg, 2 h): 0.18 µg/mL
O=C(O)C(F)(F)C(F)(F)C(F)(F)C(F)(F)C(F)(F)C(F)(F)C(F)(F)F — plasma concentration (LC-MS; C57BL/6J mouse female, plasma; drinking water, 2 mg/L each PFAS, 12 weeks): 23.4 µg/mL
CN[C@@](C)(C[18F])C(=O)O — tracer uptake (A549 tumour model; host not given, blood; 2 h, tumour-bearing): 0.7 %ID/g
O=S(=O)(O)C(F)(F)C(F)(F)C(F)(F)C(F)(F)C(F)(F)C(F)(F)F — plasma concentration (LC-MS; C57BL/6J mouse male, plasma; drinking water, 2 mg/L each PFAS, 12 weeks): 25.6 ± 5.8 µg/mL
CC(C)C[C@H](N)C(=O)N[C@H](C(=O)N[C@@H](CCCCN)C(=O)NCC(=O)N[C@@H](CCCNC(=N)N)C(N)=O)C(C)C — plasma concentration (lean mouse, plasma; intraperitoneal, 500 µg GLP-1(9-36)amide, 5 min): 80 nM
CC(C)C[C@H](NC(=O)[C@H](CCC(=O)O)NC(=O)[C@H](CCC(=O)O)NC(=O)[C@H](CC(=O)O)NC(=O)[C@H](CCC(=O)O)NC(=O)[C@H](CCC(=O)O)NC(=O)[C@H](CCC(=O)O)NC(=O)[C@@H](N)CC(=O)O)C(=O)O — plasma concentration (rat, plasma; intranasal, 5.5 mg/kg single dose, 15 min): 0.162 µg/mL

Excerpt of the above:
CCOCCOCCOCCCCCNC(=O)NC12CC3CC(CC(C3)C1)C2 — plasma concentration (ApoE knockout mice, plasma; drinking water, 90 µg/mL, 8 weeks): 0.06 ± 0.04 nM
